Measurements of several laboratories.
Each numbered part is a random draw from the data of one study; scales do not carry over between parts.

Study 1
Target: Sal-like protein 4, full length isoform A (SALL4, Homo sapiens, UniProt Q9UJQ4, residues 1-1053)
Sequence of UniProt Q9UJQ4 (whole entry, looked up): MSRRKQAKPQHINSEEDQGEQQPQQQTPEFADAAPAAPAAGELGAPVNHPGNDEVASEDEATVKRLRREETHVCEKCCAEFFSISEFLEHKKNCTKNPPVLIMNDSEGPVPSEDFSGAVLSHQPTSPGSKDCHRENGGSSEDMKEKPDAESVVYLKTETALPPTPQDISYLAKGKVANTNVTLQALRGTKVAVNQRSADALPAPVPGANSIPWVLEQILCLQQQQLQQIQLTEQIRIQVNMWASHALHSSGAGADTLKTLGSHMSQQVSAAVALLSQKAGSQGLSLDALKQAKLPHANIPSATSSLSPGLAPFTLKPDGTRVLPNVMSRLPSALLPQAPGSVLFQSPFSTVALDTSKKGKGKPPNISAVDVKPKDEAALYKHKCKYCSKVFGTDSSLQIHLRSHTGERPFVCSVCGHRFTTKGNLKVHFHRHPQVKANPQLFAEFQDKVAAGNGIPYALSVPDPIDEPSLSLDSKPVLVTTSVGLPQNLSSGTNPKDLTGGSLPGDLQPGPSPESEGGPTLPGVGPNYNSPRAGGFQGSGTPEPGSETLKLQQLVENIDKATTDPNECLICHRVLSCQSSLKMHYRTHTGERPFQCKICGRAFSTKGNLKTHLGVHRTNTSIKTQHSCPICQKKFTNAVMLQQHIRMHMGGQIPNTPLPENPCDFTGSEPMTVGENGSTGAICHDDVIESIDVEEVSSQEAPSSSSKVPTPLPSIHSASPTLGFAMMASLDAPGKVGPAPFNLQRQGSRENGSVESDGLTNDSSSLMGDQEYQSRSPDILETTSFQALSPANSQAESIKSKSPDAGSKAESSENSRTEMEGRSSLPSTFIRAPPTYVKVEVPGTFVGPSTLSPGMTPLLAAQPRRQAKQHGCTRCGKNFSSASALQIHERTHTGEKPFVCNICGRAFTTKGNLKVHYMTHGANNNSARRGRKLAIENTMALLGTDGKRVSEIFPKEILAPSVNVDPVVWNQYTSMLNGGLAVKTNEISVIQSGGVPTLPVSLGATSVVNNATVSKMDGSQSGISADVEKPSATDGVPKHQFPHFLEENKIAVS
Technique: universal PBM
Molecule type: double-stranded DNA, one strand shown
Matrix: in vitro
Concentration: 600 nM
Notes: 8-mer, flanks averaged, mean of replicates
Reading: higher = stronger binding
| Sequence | E-score |
| --- | --- |
| CTGTTTGA | 0.126 |
| CATCTGCG | -0.0515 |
| GCATCGAA | 0.0288 |
| AATGACCA | 0.0339 |
| CGGAGCGA | -0.0315 |
| CTACTCTA | 0.114 |
| GATACCGA | -0.0804 |

Study 2
Target: Histone acetyltransferase KAT6A, winged helix 2, GST fusion (KAT6A, Homo sapiens, UniProt Q92794, residues 85-181)
Technique: protein binding microarray
Molecule type: double-stranded DNA, one strand shown
Matrix: in vitro
Concentration: not given
Notes: 8-mer, flanks averaged, mean of 2 arrays, mostly near background
Relative to: not given
Reading: higher = stronger binding
Target sequence (chain): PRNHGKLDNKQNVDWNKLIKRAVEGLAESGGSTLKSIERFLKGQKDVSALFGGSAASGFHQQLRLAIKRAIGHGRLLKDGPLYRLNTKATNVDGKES
| Sequence | E-score |
| --- | --- |
| AAGCAGCT | -0.0812 |
| CTGGGGGC | -0.00401 |
| AACTCCCC | 0.0417 |
| CCCTGGGA | 0.107 |
| ATACTTTG | 0.0531 |
| CCCATAGA | -0.257 |

Study 3
Target: TAR DNA-binding protein 43, full length, His tag (TARDBP, Homo sapiens, UniProt Q13148, residues 1-414)
Technique: RNA Bind-n-Seq
Molecule type: RNA
Matrix: in vitro
Concentration: 20 nM
Notes: 6-mer, flanks averaged, single round
Together with: 150 mM KCl
Relative to: input library
Reading: higher = stronger binding
| Sequence | 6-mer enrichment (R) |
| --- | --- |
| GCUGUC | 0.79 |
| AUCCAG | 0.68 |
| AGUGAG | 1.69 |
| GAAACU | 0.657 |

Single results of other studies
| Substance | target | test | system | conditions | scale | endpoint | value |
| --- | --- | --- | --- | --- | --- | --- | --- |
| PhoQ, residues 284 288 289 292 302 303 SIHLQL | PhoP, residues 12 14 15 18 19 GQAIL (Escherichia coli, UniProt P23836) | Sort-seq, item: YFP reporter | E. coli | PhoQ-PhoP variant library, together with: 10 µM Mg2+ | relative to: high Mg2+ state, higher = stronger signaling | fold induction | 9.94 |

For quick reference, copied from above (study 3):
| Sequence | 6-mer enrichment (R) |
| --- | --- |
| AUCCAG | 0.68 |
